Measured values of several laboratories.
Parts stem from different laboratories: compare values within a part only. Values joined by “and” are separate records of one study, mostly repeats; a detail may differ.
Chain of UniProt Q96L34 (whole entry, looked up): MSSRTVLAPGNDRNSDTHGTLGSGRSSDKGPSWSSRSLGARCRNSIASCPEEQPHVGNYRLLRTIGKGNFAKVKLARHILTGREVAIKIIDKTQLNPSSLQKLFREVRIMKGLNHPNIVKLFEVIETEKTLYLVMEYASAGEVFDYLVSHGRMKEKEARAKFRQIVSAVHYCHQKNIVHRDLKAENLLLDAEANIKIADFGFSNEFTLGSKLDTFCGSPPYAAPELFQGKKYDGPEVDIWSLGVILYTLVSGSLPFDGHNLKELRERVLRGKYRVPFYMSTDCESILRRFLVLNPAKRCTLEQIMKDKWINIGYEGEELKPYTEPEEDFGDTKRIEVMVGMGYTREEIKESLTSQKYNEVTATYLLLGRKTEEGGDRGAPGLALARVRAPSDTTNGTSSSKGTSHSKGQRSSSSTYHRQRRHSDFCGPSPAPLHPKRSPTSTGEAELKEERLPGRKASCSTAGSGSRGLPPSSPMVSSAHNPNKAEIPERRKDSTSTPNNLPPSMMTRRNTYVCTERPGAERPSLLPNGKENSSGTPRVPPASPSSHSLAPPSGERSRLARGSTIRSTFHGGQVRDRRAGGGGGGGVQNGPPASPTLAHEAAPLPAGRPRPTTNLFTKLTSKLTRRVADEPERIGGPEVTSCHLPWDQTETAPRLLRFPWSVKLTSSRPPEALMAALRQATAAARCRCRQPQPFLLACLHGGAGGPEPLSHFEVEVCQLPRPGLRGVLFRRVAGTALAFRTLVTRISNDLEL

Series 1
Structure (SMILES): C=CCc1ccc(O)c(-c2ccc(O)c(CC=C)c2)c1
Effect on: chloride current
ANO1 del476-501: Anoctamin-1 (ANO1, Homo sapiens, UniProt Q5XXA6, del476-501)
Chain of UniProt Q5XXA6 (whole entry, unmodified, looked up): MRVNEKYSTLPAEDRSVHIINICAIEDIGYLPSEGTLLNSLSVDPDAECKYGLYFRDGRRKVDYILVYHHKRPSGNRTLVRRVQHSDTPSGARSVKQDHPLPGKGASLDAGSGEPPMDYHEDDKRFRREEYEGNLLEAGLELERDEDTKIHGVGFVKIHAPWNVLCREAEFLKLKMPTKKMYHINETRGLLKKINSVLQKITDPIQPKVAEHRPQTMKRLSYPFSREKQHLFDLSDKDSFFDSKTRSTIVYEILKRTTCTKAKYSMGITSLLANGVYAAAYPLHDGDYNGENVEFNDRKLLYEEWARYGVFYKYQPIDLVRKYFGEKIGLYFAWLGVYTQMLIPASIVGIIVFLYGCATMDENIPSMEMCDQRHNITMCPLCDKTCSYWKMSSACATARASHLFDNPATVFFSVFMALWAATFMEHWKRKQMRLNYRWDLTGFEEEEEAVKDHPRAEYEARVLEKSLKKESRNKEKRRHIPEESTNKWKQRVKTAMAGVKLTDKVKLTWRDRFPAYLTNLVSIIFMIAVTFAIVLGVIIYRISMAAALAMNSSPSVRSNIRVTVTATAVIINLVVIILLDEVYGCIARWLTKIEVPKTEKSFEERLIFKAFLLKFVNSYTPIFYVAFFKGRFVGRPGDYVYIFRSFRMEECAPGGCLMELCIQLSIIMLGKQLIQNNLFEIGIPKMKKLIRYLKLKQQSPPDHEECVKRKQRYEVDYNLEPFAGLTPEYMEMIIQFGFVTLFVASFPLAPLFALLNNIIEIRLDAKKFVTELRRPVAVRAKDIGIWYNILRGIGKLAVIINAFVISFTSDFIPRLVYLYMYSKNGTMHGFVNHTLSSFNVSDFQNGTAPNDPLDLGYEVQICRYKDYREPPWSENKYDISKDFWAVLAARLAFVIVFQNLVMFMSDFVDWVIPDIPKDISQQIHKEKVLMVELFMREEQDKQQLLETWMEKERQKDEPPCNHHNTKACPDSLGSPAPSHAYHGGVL
For ANO1 del476-501; whole-cell voltage clamp; 10 µM, wild type, I-V at 100 mV, together with: 4 µM Ca2+: normalized current read 0.316.
The normalized current was -0.012 (ANO1 del476-501; whole-cell voltage clamp; 30 µM, wild type, concentration-response at -20 mV, together with: 4 µM Ca2+).
For Anoctamin-1 (ANO1, Homo sapiens, UniProt Q5XXA6, del476-501/E649A/R541A); inside-out patch clamp; 10 µM, membrane voltage 0 mV: normalized current read -0.0024.
It gave 0.966 for normalized current (Anoctamin-1 (ANO1, Homo sapiens, UniProt Q5XXA6, del476-501/F628A); inhibitor, whole-cell voltage clamp; 1 µM, F602A mutant).
The normalized current was -0.00066 (ANO1 del476-501; whole-cell voltage clamp; 10 µM, wild type, I-V at 0 mV, together with: 4 µM Ca2+).
The normalized current was 0.0713 (ANO1 del476-501; whole-cell voltage clamp; 30 µM, wild type, concentration-response at 100 mV, together with: 4 µM Ca2+).

Series 2
SMILES: CCCCN(CCCC)C(=O)CN1C[C@H](c2cc(OC)c3c(c2)OCO3)[C@@H](C(=O)O)[C@@H]1CC(C)(C)CCC
Technique: competition with immobilised ligand
Tested at: 1 µM
MAP3K6 (Homo sapiens, UniProt O95382); cell-free assay — remaining binding: 81.7%.
It gave 83.7% for remaining binding (Tyrosine-protein kinase ABL1, phosphorylated (ABL1, Homo sapiens, UniProt P00519, E255K); binding).
The remaining binding was 50.8% (GRK3 (Homo sapiens, UniProt P35626); cell-free assay).
For MARK4 (Homo sapiens, UniProt Q96L34); cell-free assay: remaining binding read 98.3%.
For ANKK1 (Homo sapiens, UniProt Q8NFD2); cell-free assay: remaining binding read 55.1%.
It gave 100% for remaining binding (Ribosomal protein S6 kinase alpha-2, C-terminal kinase domain (RPS6KA2, Homo sapiens, UniProt Q15349); cell-free assay).
For LIM domain kinase 2 (LIMK2, Homo sapiens, UniProt P53671); cell-free assay: remaining binding read 100%.
MAP3K11 (Homo sapiens, UniProt Q16584); cell-free assay — remaining binding: 100%.
For ACVR2A (Homo sapiens, UniProt P27037); cell-free assay: remaining binding read 97.4%.
The remaining binding was 56.1% (PDGFRA (Homo sapiens, UniProt P16234); cell-free assay).
PKMYT1 (Homo sapiens, UniProt Q99640); cell-free assay — remaining binding: 100%.
The remaining binding was 100% (CDC42BPB (Homo sapiens, UniProt Q9Y5S2); cell-free assay).
It gave 100% for remaining binding (STK11 (Homo sapiens, UniProt Q15831); cell-free assay).
FLT3 (Homo sapiens, UniProt P36888, D835H); cell-free assay — remaining binding: 100%.
RIOK3 (Homo sapiens, UniProt O14730); cell-free assay — remaining binding: 74.9%.
The remaining binding was 100% (DYRK1B (Homo sapiens, UniProt Q9Y463); cell-free assay).
For FGFR3 (Homo sapiens, UniProt P22607, G697C); cell-free assay: remaining binding read 80.2%.

Series 3
Target: DNA polymerase theta, ATPase domain (POLQ, Homo sapiens, UniProt O75417)
Chain of UniProt O75417 (whole entry, unmodified, looked up): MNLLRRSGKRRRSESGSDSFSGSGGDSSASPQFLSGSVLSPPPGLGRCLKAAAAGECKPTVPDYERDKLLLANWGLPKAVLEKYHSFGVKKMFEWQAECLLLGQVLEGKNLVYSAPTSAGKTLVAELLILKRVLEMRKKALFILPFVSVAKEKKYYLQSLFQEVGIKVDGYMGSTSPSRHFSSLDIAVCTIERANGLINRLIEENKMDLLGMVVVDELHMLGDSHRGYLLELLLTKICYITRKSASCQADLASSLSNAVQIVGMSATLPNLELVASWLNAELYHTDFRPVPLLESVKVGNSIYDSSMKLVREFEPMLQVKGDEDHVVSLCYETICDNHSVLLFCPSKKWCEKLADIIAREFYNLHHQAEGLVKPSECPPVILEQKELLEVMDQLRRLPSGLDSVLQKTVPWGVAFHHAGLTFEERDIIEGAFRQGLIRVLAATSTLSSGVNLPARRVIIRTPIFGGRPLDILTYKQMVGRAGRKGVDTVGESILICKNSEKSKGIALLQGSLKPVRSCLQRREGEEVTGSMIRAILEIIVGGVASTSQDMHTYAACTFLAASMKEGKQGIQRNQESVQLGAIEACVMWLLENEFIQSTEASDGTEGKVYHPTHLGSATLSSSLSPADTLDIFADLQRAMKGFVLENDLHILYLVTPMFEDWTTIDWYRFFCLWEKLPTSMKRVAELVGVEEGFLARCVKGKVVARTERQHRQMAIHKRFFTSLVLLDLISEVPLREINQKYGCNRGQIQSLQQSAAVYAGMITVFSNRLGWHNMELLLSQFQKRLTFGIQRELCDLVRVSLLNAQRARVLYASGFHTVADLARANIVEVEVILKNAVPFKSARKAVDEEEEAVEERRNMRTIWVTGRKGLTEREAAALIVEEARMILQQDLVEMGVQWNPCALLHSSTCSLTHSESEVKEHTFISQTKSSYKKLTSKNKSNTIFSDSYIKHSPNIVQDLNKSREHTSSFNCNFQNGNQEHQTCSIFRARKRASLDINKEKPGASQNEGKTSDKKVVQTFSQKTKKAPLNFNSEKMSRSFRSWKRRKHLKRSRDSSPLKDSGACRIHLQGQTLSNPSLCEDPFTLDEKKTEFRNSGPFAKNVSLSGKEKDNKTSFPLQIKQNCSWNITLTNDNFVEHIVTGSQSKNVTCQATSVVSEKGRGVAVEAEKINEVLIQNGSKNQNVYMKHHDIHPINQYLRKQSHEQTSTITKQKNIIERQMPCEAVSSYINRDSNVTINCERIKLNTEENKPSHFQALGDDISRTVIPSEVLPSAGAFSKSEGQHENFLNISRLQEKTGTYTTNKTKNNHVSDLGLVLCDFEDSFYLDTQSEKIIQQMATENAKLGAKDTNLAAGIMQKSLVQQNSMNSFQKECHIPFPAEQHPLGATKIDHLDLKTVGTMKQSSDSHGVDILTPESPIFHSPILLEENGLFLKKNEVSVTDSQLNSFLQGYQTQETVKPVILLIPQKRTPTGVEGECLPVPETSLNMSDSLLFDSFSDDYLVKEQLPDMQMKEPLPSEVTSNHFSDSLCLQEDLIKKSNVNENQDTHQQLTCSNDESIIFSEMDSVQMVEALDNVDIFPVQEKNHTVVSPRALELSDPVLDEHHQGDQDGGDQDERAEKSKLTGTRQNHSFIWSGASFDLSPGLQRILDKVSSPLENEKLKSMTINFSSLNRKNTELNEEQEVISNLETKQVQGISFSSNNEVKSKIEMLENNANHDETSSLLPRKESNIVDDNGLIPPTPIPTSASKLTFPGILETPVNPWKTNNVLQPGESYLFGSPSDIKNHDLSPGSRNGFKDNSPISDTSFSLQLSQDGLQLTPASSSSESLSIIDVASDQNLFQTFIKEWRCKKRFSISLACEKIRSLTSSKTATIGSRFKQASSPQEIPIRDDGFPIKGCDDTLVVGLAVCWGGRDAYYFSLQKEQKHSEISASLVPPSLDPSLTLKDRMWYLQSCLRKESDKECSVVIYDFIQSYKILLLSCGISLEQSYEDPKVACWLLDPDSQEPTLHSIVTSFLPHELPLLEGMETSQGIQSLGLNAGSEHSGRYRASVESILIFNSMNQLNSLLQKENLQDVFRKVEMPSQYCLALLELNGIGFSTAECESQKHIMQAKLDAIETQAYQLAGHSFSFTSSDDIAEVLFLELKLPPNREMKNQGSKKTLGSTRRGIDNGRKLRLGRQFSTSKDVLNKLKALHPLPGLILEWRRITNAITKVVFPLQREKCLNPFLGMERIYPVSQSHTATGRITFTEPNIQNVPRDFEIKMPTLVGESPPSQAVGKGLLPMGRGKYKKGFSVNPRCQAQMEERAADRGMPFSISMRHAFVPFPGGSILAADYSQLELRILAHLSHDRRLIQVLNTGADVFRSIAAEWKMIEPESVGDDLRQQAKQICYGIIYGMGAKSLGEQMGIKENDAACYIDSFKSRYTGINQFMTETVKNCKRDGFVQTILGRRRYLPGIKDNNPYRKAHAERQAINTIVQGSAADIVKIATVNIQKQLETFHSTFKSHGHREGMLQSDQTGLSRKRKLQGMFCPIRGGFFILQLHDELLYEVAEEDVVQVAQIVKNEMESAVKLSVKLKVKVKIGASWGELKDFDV
Effect on: enzyme activity
Mode: inhibitor
Tested at: 77 µM
Relative to: untreated
`Cc1cc(O)c2c(c1)C(=O)c1cccc(O)c1C2=O` gave a remaining activity of 101%.
`CC(=O)N[C@@H](Cc1c[nH]c2ccccc12)C(=O)OCc1cc(C(F)(F)F)cc(C(F)(F)F)c1` gave a remaining activity of 104%.
For `O=C1c2ccccc2C(=O)C1c1ccccc1`, the remaining activity was 99.6% and 92.1%.
With `C[N+]1(C)[C@@H]2CC[C@H]1C[C@@H](OC(=O)C(O)c1ccccc1)C2` (stereo partly shown) the remaining activity was 102%.
For `C#CCC(Cc1cnc2nc(N)nc(N)c2n1)c1ccc(C(=O)N[C@@H](CCC(=O)O)C(=O)O)cc1` (stereo partly shown), the remaining activity was 99.5%.
The remaining activity of `CN(C)CCOc1ccc(-c2nc(-c3ccncc3)c(-c3ccc4c(c3)CC/C4=N\O)[nH]2)cc1` is reported as 133% and 108% and 143% and 129%.
For `COC(=O)c1ccc2c(C(=Nc3ccc(N(C)C(=O)CN4CCN(C)CC4)cc3)c3ccccc3)c(O)[nH]c2c1`, the remaining activity was 76.4%.
`CCOc1ccc(Cc2nccc3cc(OCC)c(OCC)cc23)cc1OCC` has a remaining activity of 99.6%.
For `CC(C(=O)O)c1ccc2c(c1)Cc1cccnc1O2` (stereo not shown), the remaining activity was 98.4%.
`C[N+]1(CCCCC[N+]2(C)CCCC2)CCCC1` has a remaining activity of 98.7%.
`Cc1cc2c(cc1CC(=O)c1sccc1S(=O)(=O)Nc1onc(C)c1Cl)OCO2` gave a remaining activity of 86.8%.

Series 4
Structure (SMILES): Cc1sc(C(=O)NC2COC2)cc1-n1cc(NC(=O)Nc2c(F)cccc2Cl)cn1
Effect on: enzyme activity
Tested at: 10 µM
It gave 105% for remaining activity (CLK2 (Homo sapiens, UniProt P49760); relative to: untreated control).
For TSSK6 (Homo sapiens, UniProt Q9BXA6); inhibitor: remaining activity read 94%.
It gave 98.8% for remaining activity (ZAP70 (Homo sapiens, UniProt P43403); relative to: untreated control).
It gave 97.4% for remaining activity (TESK2 (Homo sapiens, UniProt Q96S53); relative to: untreated control).
The remaining activity was 89.6% (MAP2K5 (Homo sapiens, UniProt Q13163); relative to: untreated control).
The remaining activity was 101% (AKT1 (Homo sapiens, UniProt P31749); relative to: untreated control).

A few entries again (series 2):
PKMYT1 (Homo sapiens, UniProt Q99640); cell-free assay — remaining binding: 100%.
The remaining binding was 100% (CDC42BPB (Homo sapiens, UniProt Q9Y5S2); cell-free assay).
It gave 100% for remaining binding (STK11 (Homo sapiens, UniProt Q15831); cell-free assay).
FLT3 (Homo sapiens, UniProt P36888, D835H); cell-free assay — remaining binding: 100%.
